Assay results collected from several papers.
Compare with care: the assays were run in different laboratories. Several values in a cell are separate wells, animals, samples, runs or records.

Under “change in Incompetent-Proficient score”, `O=C(Nc1ccccc1)C1CCN(C(=O)Oc2cccnc2)CC1` is recorded as 5.4 (Bond-Lader VAS; healthy women; oral, 20 mg; reference: pre-dose baseline, direction not given).
`CC(Nc1nc(N2CCN(CCN)CC2)nc2ccccc12)c1ccccc1` (stereo not shown) gave a cytotoxicity efficacy of 0% (Vero-E6; CellTiter-Glo ATP; concentration not given, 72 h, retest 8-point duplicates; reference: DMSO 0%, hyamine -100%, more negative, more toxic).
For `C[C@H]1CN(C(=O)CC#N)[C@]12CCN(c1ncnc3[nH]ccc13)C2`, “Cmax at NOAEL” read 1.2 ng/mL (minipig, male; dermal, 12 mg/kg repeated, 1 months).
`CN1CC[C@@H](c2c(O)cc(O)c3c(=O)cc(-c4ccc(C(F)(F)F)cc4Cl)oc23)[C@@H]1CO` — result for “patients with adverse event”: 30% (refers to: Diarrhea; relapsed or refractory haematological malignancies; oral, dose not given, all arms).
`CCN1[C@@H](C(=O)NC23CCC(C(=O)O)(CC2)CC3)[C@H](c2cccc(Cl)c2F)[C@]2(C(=O)Nc3cc(Cl)ccc32)C12CCCCC2` gave a Myalgia incidence of 9.1% (patients with advanced solid tumours; oral, 100 mg).
For `N=c1c2c(-c3ccccc3)c(-c3ccccc3)n(Cc3ccccc3)c2ncn1[C@H]1CC[C@H](O)CC1`, “excreted unchanged in bile” read 1.6% and < 2% (bile duct-cannulated Sprague-Dawley rat, male; intravenous, 1 mg/kg, 48 h; reference: dose).
The Appendicitis incidence of `COc1cc2c(Oc3ccc4[nH]c(C)cc4c3F)ccnc2cc1OCC1(N)CC1` is reported as 0% (paediatric refractory sarcoma patients; 10 mg).
`CC(C)(O)c1cc(Nc2cc(Oc3cn(C4CC4)nc3C3CCOCC3)ccn2)ccn1`: “treatment-emergent adverse events” 5% (Pyrexia; advanced cancer patients, grade 4 glioma expansion; oral, 50 mg twice daily, all causality any grade).
`CO[C@H]1C[C@@H]2CC[C@@H](C)[C@@](O)(O2)C(=O)C(=O)N2CCCC[C@H]2C(=O)O[C@H]([C@H](C)C[C@@H]2CC[C@@H](OC(=O)NCCOCCOCCOCCOCCOCCOCCOCCOCCC(=O)N3CCc4cc(Cn5nc(-c6ccc7oc(N)nc7c6)c6c(N)ncnc65)ccc4C3)[C@H](OC)C2)C[C@@H](O)[C@H](C)/C=C(\C)[C@@H](O)[C@@H](OC)C(=O)[C@H](C)C[C@H](C)/C=C/C=C/C=C/1C`: “incidence of Anemia TEAE” 60% (patients with advanced solid tumours; intravenous, 1.6 mg/3 mg weekly, any grade).
`Cc1ncccc1-c1nc2cc(C(=O)NCCCc3ccccc3)ccc2o1` has a maximum response of -10.8% (Vero-E6; CellTiter-Glo ATP; 72 h, second round 5-point; reference: DMSO 0%, hyamine -100%, more negative, more toxic).
Under “treatment-related AE causing withdrawal”, `O=C(c1ccc(F)c(F)c1Nc1ccc(I)cc1F)N1CC(O)([C@@H]2CCCCN2)C1` is recorded as 8% (human patients; oral, 1 mg/kg, dose expansion).
`O[C@H]1CCCN[C@@H]1CCCn1cnc2c(Cl)c(Cl)ccc21`: “effect of CYP2D6 phenotype on pharmacokinetics” “no effect” (human).
`C[C@]1(CO)Cc2ncn(-c3ccc(C#N)c(Cl)c3)c2C(=O)O1`: “drug-related urine abnormality” 0% (human; 10 mg, European food-effect part, fed).
The Fibrinogen of `CCc1ccc(CC/C=C/c2ccc3c(c2)C(=O)CC3)cc1` is reported as 3.4 g/L (Sprague-Dawley rat, male; oral, 120 mg/kg/day, 14 days).
With `CC(=O)c1c(C)c2cnc(Nc3ccc(C4CCN(CCS(C)(=O)=O)CC4)cn3)nc2n(C2CCCC2)c1=O` the clearance was 1360 mL/min (human, dose-escalation trial, plasma; oral, 75 mg twice daily, day 21, multiple doses).
`N[C@@H]1c2ccccc2OC12CCN(c1cnc3c(N4CCCc5ncccc54)n[nH]c3n1)CC2`: “peripheral oedema TRAE incidence” 36% (patients advanced metastatic solid tumours; oral, 60 mg once daily, pooled cohort).

Excerpt of the above:
`Cc1ncccc1-c1nc2cc(C(=O)NCCCc3ccccc3)ccc2o1` has a maximum response of -10.8% (Vero-E6; CellTiter-Glo ATP; 72 h, second round 5-point; reference: DMSO 0%, hyamine -100%, more negative, more toxic).
